Assay results collected from several papers.
Parts stem from different laboratories: compare values within a part only. Substitutions count along the parent as printed.
Sequence of UniProt O75417 (whole entry, unmodified, looked up): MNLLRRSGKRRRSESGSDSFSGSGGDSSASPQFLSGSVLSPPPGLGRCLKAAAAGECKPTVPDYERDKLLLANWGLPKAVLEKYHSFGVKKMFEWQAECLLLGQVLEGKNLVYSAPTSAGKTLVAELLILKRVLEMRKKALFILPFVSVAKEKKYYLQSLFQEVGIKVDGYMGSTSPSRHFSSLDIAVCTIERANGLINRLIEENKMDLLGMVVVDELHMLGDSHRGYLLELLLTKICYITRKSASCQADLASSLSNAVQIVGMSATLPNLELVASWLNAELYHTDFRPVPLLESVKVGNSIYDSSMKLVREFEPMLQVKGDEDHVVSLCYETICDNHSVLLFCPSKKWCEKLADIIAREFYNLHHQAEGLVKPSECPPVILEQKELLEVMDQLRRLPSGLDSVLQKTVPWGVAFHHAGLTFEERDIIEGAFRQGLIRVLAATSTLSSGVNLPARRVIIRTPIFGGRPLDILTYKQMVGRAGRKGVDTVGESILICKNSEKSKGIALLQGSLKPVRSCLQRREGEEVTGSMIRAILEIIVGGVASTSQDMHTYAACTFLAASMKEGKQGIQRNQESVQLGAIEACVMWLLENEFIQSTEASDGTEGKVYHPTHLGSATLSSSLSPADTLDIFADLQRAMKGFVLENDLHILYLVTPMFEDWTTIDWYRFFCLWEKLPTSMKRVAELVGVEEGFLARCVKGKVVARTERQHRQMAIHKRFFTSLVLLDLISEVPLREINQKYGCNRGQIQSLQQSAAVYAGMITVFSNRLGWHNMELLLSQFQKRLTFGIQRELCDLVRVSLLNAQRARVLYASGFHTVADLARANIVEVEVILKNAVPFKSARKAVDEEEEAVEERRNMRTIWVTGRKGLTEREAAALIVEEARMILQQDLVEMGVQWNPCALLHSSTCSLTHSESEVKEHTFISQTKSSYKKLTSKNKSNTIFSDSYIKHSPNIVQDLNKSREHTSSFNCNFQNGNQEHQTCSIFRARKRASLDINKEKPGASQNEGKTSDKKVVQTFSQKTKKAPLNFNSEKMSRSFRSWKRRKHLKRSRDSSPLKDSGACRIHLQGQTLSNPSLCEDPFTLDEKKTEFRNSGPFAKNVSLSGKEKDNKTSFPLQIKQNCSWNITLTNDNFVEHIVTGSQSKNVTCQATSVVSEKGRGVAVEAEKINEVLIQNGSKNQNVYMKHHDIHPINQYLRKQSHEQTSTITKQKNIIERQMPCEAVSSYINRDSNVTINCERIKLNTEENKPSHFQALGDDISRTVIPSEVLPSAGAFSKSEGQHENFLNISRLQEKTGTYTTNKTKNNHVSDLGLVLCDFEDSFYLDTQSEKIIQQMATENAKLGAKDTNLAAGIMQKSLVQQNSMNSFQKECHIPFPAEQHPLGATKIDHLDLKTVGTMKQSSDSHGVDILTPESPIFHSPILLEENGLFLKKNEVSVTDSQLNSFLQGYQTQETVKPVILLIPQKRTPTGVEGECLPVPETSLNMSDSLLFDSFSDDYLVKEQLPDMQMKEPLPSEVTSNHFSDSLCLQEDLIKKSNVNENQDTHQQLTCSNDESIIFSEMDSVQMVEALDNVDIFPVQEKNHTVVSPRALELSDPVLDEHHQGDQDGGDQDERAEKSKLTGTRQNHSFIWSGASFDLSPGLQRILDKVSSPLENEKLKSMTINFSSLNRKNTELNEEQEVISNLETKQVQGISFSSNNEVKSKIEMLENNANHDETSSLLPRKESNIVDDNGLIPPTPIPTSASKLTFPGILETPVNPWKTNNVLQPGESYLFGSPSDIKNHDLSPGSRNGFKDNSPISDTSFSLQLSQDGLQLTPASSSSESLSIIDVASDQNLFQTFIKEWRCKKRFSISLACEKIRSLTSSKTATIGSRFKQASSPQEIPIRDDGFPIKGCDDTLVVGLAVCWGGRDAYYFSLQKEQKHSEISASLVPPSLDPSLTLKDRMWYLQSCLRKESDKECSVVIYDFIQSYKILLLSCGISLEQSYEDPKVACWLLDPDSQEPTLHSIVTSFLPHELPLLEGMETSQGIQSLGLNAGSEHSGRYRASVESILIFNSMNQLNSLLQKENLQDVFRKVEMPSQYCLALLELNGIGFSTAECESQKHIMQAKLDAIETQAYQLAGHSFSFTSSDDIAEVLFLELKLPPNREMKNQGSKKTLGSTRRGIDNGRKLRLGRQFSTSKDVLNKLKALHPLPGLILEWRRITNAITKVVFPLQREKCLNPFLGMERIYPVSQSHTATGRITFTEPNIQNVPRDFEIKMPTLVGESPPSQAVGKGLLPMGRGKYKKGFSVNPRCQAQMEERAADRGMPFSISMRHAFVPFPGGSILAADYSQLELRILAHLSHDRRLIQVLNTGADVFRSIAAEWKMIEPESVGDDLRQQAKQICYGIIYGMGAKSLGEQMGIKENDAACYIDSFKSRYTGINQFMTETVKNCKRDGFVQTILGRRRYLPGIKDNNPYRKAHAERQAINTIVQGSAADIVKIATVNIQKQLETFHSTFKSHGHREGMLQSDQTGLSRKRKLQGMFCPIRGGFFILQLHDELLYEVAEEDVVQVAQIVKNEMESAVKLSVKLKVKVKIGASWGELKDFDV

Block 1
Target: CCNE1, cyclin fold, Cln2 fusion (human)
Technique: yeast growth competition, sequencing
Medium: yeast
Setting: strong parent motif
Baseline: not given
Direction: higher = stronger binding
Parent: viral docking peptide; YKVKRRLVFGADD; partner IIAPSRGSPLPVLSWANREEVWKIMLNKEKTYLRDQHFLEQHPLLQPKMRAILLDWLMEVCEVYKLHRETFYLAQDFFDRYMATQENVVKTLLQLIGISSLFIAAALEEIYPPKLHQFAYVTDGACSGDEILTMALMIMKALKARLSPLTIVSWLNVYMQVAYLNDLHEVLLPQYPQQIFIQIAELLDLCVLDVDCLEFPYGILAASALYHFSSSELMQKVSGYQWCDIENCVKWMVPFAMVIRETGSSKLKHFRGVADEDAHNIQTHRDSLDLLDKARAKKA
Under “normalised enrichment score”, `K2H` is recorded as 6.58.
`V8G`: “normalised enrichment score” 2.15.
For `D12P`, “normalised enrichment score” read 4.99.
`G10I`: “normalised enrichment score” 5.15.
`R5G` — result for “normalised enrichment score”: 0.372.
Under “normalised enrichment score”, `V3D` is recorded as 0.372.
For `V3A`, “normalised enrichment score” read 5.67.
`K2S` — result for “normalised enrichment score”: 5.78.

Block 2
Target: vanadate, free oxyanion
Technique: microfluidic competitive inhibition
Medium: in vitro, cell-free expressed
Concentration: not given
Setting: derived from inhibition constants, unchanged parent 676 nM
Direction: lower = stronger binding
Parent: PafA, mature enzyme, eGFP fusion (Elizabethkingia meningoseptica, UniProt Q9KJX5); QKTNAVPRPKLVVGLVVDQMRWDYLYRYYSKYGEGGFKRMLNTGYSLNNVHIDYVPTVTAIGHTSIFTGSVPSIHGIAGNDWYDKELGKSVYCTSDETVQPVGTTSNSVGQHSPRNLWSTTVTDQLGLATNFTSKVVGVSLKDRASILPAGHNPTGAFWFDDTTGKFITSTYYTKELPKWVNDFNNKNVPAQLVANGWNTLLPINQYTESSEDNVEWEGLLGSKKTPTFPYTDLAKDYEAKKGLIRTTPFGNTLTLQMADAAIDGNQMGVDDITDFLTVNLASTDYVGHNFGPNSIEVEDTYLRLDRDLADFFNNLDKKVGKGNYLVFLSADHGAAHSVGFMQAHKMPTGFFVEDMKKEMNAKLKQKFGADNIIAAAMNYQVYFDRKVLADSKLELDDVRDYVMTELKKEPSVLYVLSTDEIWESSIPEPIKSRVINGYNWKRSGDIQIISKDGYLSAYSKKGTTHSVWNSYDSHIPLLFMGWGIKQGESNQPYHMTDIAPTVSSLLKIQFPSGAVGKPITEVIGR
`S65G` — result for “oxyanion analog dissociation constant”: 1.03 µM.
For `Q100V`, “oxyanion analog dissociation constant” read 658 nM.
`T232G` — result for “oxyanion analog dissociation constant”: 658 nM.
`S457G` — result for “oxyanion analog dissociation constant”: 616 nM.
`R27G` — result for “oxyanion analog dissociation constant”: 724 nM.
`V399A` — result for “oxyanion analog dissociation constant”: 813 nM.
For `D498G`, “oxyanion analog dissociation constant” read 383 nM.
`D397V` — result for “oxyanion analog dissociation constant”: 720 nM.

Mixed results
CNCc1ccccc1-c1csc([C@H](C)Nc2nc(C)nc3cc(OC)c(OC)cc23)c1 gave a remaining binding of 71% (CRK2 (Plasmodium falciparum, UniProt P61075); cell-free assay, competition with immobilised ligand; 1 µM).
With CCOc1ccccc1-n1c(C(C)N2CCN(C(=O)COc3ccc(Cl)cc3)CC2)nc2ccccc2c1=O (stereo not drawn) the remaining activity was 102% (DNA polymerase theta, ATPase domain (POLQ, Homo sapiens, UniProt O75417); enzyme activity, inhibitor; 77 µM).

Some of these lines once more (block 2):
`R27G` — result for “oxyanion analog dissociation constant”: 724 nM.
`V399A` — result for “oxyanion analog dissociation constant”: 813 nM.
For `D498G`, “oxyanion analog dissociation constant” read 383 nM.
